Assay results of several laboratories.
Protocols differ between the studies behind these lines. Values joined by “and” are separate records of one study, mostly repeats; a detail may differ.
Partner: itself
B1: tnsC 1-503 A225V (Escherichia coli, UniProt P05846); sequence looked up; chain MSATRIQAVYRDTGVEAYRDNPFIEALPPLQESVNSAASLKSSLQLTSSDLQKSRVIRAHTICRIPDDYFQPLGTHLLLSERISVMIRGGYVGRNPKTGDLQKHLQNGYERVQTGELETFRFEEARSTAQSLLLIGCSGSGKTTSLHRILATYPQVIYHRELNVEQVVYLKIDCSHNGSLKEICLNFFRALDRALGSNYERRYGLKRHGIETMLALMSQIANAHVLGLLVIDEIQHLSRSRSGGSQEMLNFFVTMVNIIGVPVMLIGTPKAREIFEADLRSARRGAGFGAIFWDPIQQTQRGKPNQEWIAFTDNLWQLQLLQRKDALLSDEVRDVWYELSQGVMDIVVKLFVLAQLRALALGNERITAGLLRQVYQDELKPVHPMLEALRSGIPERIARYSDLVVPEIDKRLIQLQLDIAAIQEQTPEEKALQELDTEDQRHLYLMLKEDYDSSLLIPTIKKAFSQNPTMTRQKLLPLVLQWLMEGETVVSELEKPSKSKKVS
B2: CRYBB2 (Homo sapiens, UniProt P43320); sequence looked up; chain MASDHQTQAGKPQSLNPKIIIFEQENFQGHSHELNGPCPNLKETGVEKAGSVLVQAGPWVGYEQANCKGEQFVFEKGEYPRWDSWTSSRRTDSLSSLRPIKVDSQEHKIILYENPNFTGKKMEIIDDDVPSFHAHGYQEKVSSVRVQSGTWVGYQYPGYRGLQYLLEKGDYKDSSDFGAPHPQVQSVRRIRDMQWHQRGAFHPSN
B3: irisin mature, refolded (not on card, UniProt Q8NAU1); sequence looked up; chain DSPSAPVNVTVRHLKANSAVVSWDVLEDEVVIGFAISQQKKDVRMLRFIQEVNTTTRSCALWDLEEDTEYIVHVQAISIQGQSPASEPVLFKTPREAEKMASKNKDEVTMKE
B4: RBKS E154R (Homo sapiens, UniProt Q9H477); sequence looked up; chain MAASGEPQRQWQEEVAAVVVVGSCMTDLVSLTSRLPKTGETIHGHKFFIGFGGKGANQCVQAARLGAMTSMVCKVGKDSFGNDYIENLKQNDISTEFTYQTKDAATGTASIIVNNEGQNIIVIVAGANLLLNTEDLRAAANVISRAKVMVCQLRITPATSLEALTMARRSGVKTLFNPAPAIADLDPQFYTLSDVFCCNESEAEILTGLTVGSAADAGEAALVLLKRGCQVVIITLGAEGCVVLSQTEPEPKHIPTEKVKAVDTTGAGDSFVGALAFYLAYYPNLSLEDMLNRSNFIAAVSVQAAGTQSSYPYKKDLPLTLF
B5: tebp-1 (Caenorhabditis elegans, UniProt O62329); sequence looked up; chain MSSRAKKNKPSRPSFDDELTIWEFIHENTCNMEMFNEVNLDLFKEYLQEHESVFTAEQLYEYYVTTMKATLYKCEMEPEKMLTLYKNLEIEVTPHVEILLEAKFKTVLRVDSNRRLQKFSDFSARPVTCGSVSRKEKVPETIPETLEETVPETVPEPERLQNRMPLDVEISDSFEKAMWNHVSQNAARLTGKFLMTEQFWAELLQSQPNIPIKSAHIVLHHFNEMMLENLWKQAMDPDAKLQILKDLSVPLSYHQRKWILDNDRLDVALSLDGYVVSWDIVR
B6: RB1CC1 1490-1594 (Homo sapiens, UniProt Q8TDY2); chain SRHSEKIAIRDFQVGDLVLIILDERHDNYVLFTVSPTLYFLHSESLPALDLKPGEGASGASRRPWVLGKVMEKEYCQAKKAQNRFKVPLGTKFYRVKAVSWNKKV
B7: APOE mature (Cavia porcellus); chain ENLYFQGDPDVEPEVEVREPAVWQSGQPWELALSRFWDYLRWVQTLSDQVQEELLSNQVTQELTLLIEDTMKEVKDYKAELEKELGPVAEDTKARLAKELQAAQARLGADMEEVRNRLSQYRSEVQAMLGQSSEELRARLTSHLRKMRKRLQRDIDELQKRMAVYKAGAQEGAERGVSAIRERLGSLIEQGRLQALTSQPLQERAQAWGEQMRGRLEKVGSQARDRLEEVREQMEEVRVKVEEQAEAFQARLKSWFEPMMEDMRRQWAELIQKVQVAVGASTSAPSQEP
B8: fnr (Escherichia coli, UniProt P0A9E5); sequence looked up; chain MIPEKRIIRRIQSGGCAIHCQDCSISQLCIPFTLNEHELDQLDNIIERKKPIQKGQTLFKAGDELKSLYAIRSGTIKSYTITEQGDEQITGFHLAGDLVGFDAIGSGHHPSFAQALETSMVCEIPFETLDDLSGKMPNLRQQMMRLMSGEIKGDQDMILLLSKKNAEERLAAFIYNLSRRFAQRGFSPREFRLTMTRGDIGNYLGLTVETISRLLGRFQKSGMLAVKGKYITIENNDALAQLAGHTRNVA
B9: CEACAM1 35-141 (Homo sapiens, UniProt P13688-1); sequence looked up; chain QLTTESMPFNVAEGKEVLLLVHNLPQQLFGYSWYKGERVDGNRQIVGYAIGTQQATPGPANSGRETIYPNASLLIQNVTQNDTGFYTLQVIKSDLVNEEATGQFHVY
B10: NUMA1 1-705 (Homo sapiens, UniProt Q14980); LD555 dye on C-terminal SNAP; sequence looked up; chain MTLHATRGAALLSWVNSLHVADPVEAVLQLQDCSIFIKIIDRIHGTEEGQQILKQPVSERLDFVCSFLQKNRKHPSSPECLVSAQKVLEGSELELAKMTMLLLYHSTMSSKSPRDWEQFEYKIQAELAVILKFVLDHEDGLNLNEDLENFLQKAPVPSTCSSTFPEELSPPSHQAKREIRFLELQKVASSSSGNNFLSGSPASPMGDILQTPQFQMRRLKKQLADERSNRDELELELAENRKLLTEKDAQIAMMQQRIDRLALLNEKQAASPLEPKELEELRDKNESLTMRLHETLKQCQDLKTEKSQMDRKINQLSEENGDLSFKLREFASHLQQLQDALNELTEEHSKATQEWLEKQAQLEKELSAALQDKKCLEEKNEILQGKLSQLEEHLSQLQDNPPQEKGEVLGDVLQLETLKQEAATLAANNTQLQARVEMLETERGQQEAKLLAERGHFEEEKQQLSSLITDLQSSISNLSQAKEELEQASQAHGARLTAQVASLTSELTTLNATIQQQDQELAGLKQQAKEKQAQLAQTLQQQEQASQGLRHQVEQLSSSLKQKEQQLKEVAEKQEATRQDHAQQLATAAEEREASLRERDAALKQLEALEKEKAAKLEILQQQLQVANEARDSAQTSVTQAQREKAELSRKVEELQACVETARQEQHEAQAQVAELELQLRSEQQKATEKERVAQEKDQLQEQLQ
B11: lacI 1-360 (Escherichia coli, UniProt P03023); chain MKPVTLYDVAEYAGVSYQTVSRVVNQASHVSAKTREKVEAAMAELNYIPNRVAQQLAGKQSLLIGVATSSLALHAPSQIVAAIKSRADQLGASVVVSMVERSGVEACKAAVHNLLAQRVSGLIINYPLDDQDAIAVEAACTNVPALFLDVSDQTPINSIIFSHEDGTRLGVEHLVALGHQQIALLAGPLSSVSARLRLAGWHKYLTRNQIQPIAEREGDWSAMSGFQQTMQMLNEGIVPTAMLVANDQMALGAMRAITESGLRVGADISVVGYDDTEDSSCYIPPLTTIKQDFRLLGQTSVDRLLQLSQGQAVKGNQLLPVSLVKRKTTLAPNTQTASPRALADSLMQLARQVSRLESGQ
B12: ZTL 29-165 G46S/G80R (Arabidopsis thaliana, UniProt Q94BT6); sequence looked up; chain GGPIPYPVGNLLHTAPCSFVVTDAVEPDQPIIYVNTVFEMVTGYRAEEVLGRNCRFLQCRGPFAKRRHPLVDSMVVSEIRKCIDEGIEFQGELLNFRKDGSPLMNRLRLTPIYGDDDTITHIIGIQFFIETDIDLGP
B13: PF1070 1-140 E34A (Pyrococcus furiosus, UniProt Q8U1Y4); sequence looked up; chain MPSSSKSDFSFSTLIIPQHYLRAILKVVSSSSVAVCGFLFGKENRVLKVRFIRNRLNSPVEFEMDPEEMLKALEEAEQENLEVVGIFHSHIACPPIPSGKDLEGMKRWPVIWLIVNEKGEYKAWILSEKNKISEVKIVVE
B14: tas3 380-549 (Schizosaccharomyces pombe, UniProt O94687); sequence looked up; chain GAHFHLGNANDFNMQGSSRKRKASDRQRESRENELPTKKLNASDSHNPLASLTTDKNDLYINWLKSLSFFQTNSSCAEALVKVIPHYHNKLIDFSQVLQLVFSASEKFPIQENQPLPEQLMFLSNLEKQTPFAKAVGSSIYKLVTGKNLSLDFASQILKEASILEHKNEK
B15: cfbA 1-143 S11V (Methanocaldococcus jannaschii, UniProt Q58380); chain MEALVLVGHGVRLPYSKELLVKLAEKVKERNLFPIVEIGLMEFSEPTIPQAVKKAIEQGAKRIIVVPVFLAHGIHTTRDIPRLLGLIEDNHEHHHEHSHHHHHHHHHEHEKLEIPEDVEIIYREPIGADDRIVDIIIDRAFGR

Sequence | assay | system | conditions | subunits per oligomer
B1 (tnsC 1-503 A225V) | cryo-EM |  | with: AMPPnP | 7
B2 (CRYBB2) | native MS |  | abundances relative to monomer | 2
B3 (irisin mature, refolded) | SEC |  |  | 2
B4 (RBKS E154R) | mass photometry |  |  | 2
B5 (tebp-1) | SEC-MALS |  |  | 2
B6 (RB1CC1 1490-1594) | X-ray crystallography |  |  | 2
B7 (APOE mature) | cross-linking |  |  | 2 and 4
B8 (fnr) | SEC-SAXS |  |  | 2
B9 (CEACAM1 35-141) | SEC |  |  | 2
APVDSMLKDMATIILSTFLLIGWVAFIITYPLSMH (IRE1α 435-469) | SDS-PAGE | peptide |  | 2
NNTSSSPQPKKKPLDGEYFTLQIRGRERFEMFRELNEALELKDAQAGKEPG (TP53 310-360 (Homo sapiens, UniProt P04637); sequence looked up) | SEC |  |  | 4
B10 (NUMA1 1-705) | mass photometry |  |  | 2
B11 (lacI 1-360) | SEC |  |  | 4
B12 (ZTL 29-165 G46S/G80R) | SEC-SAXS |  |  | 2
B13 (PF1070 1-140 E34A) | SEC |  |  | 2
B14 (tas3 380-549) | SEC |  |  | 3
B15 (cfbA 1-143 S11V) | SEC |  |  | 2
